# Results gathered from unrelated publications.
# Protocols differ between the studies behind these lines. “And” joins repeats or separate records; there may be more than shown. ± gives the spread as reported.
SMILES,test,system,conditions,how to read,measurement,value
C/C(N)=N/C(=N\S(=O)(=O)c1ccc(C(F)(F)F)cc1)N1C[C@H](c2ccccc2)C(c2ccc(Cl)cc2)=N1,,"male C57BL/6 mouse, heart","intravenous, 10 mg/kg",,Tmax,15 min
CCCCC/C=C\CCCO[Si](CCCCN1CCCCC1)(OCCC/C=C\CCCCC)OCCC/C=C\CCCCC,,,"pH 7.5, formulated",,zeta potential,-0.14 mV
C=C(NC(=O)c1csc(-c2nc3c(cc2O)-c2nc(cs2)C(=O)NC(C(C)O)C(=O)NC(=C(C)OC)c2nc(cs2)C(=O)NC2c4nc(cs4)C(=O)NC(COC(=O)c4c5c6c(cccc6n4O)COC(=O)C(OC4CC(C)(O)C(N(C)C)C(C)O4)C2OC5)c2nc-3cs2)n1)C(N)=O (stereo not shown),,"ICR mice, Streptococcus pneumoniae ATCC 49169 infected, immunocompromised, blood","intravenous, 4 mg/kg/day three times daily",,Tmax,4.8 min
Cc1nc(N)nc2c1C(=O)N[C@@H](c1ccc(F)cc1-c1cccc(O[11CH3])n1)C2,ex vivo biodistribution,"mice, U87 subcutaneous xenograft, pancreas","60 min post-injection, baseline, vehicle pre-treatment",,tracer uptake,2.2 ± 0.3 %ID
CC(C(=O)O)n1nc(Cn2cc3cc(OCC[18F])c(Cl)cc3n2)c2ccccc2c1=O (racemic),,"rat, lung",30 min,,tracer uptake,0.33 %ID/g
CC(C)[C@H](NC(=O)[C@H](Cc1c[nH]c2ccccc12)NC(=O)[C@H](CCCNC(=N)N)NC(=O)[C@H](CCCNC(=N)N)NC(=O)[C@@H](NC(=O)[C@@H](NC(=O)[C@H](CCCNC(=N)N)NC(=O)[C@@H](NC(=O)[C@@H](NC(=O)[C@H](CCCNC(=N)N)NC(=O)[C@H](CCCNC(=N)N)NC(=O)[C@@H](NC(=O)[C@H](Cc1c[nH]c2ccccc12)NC(=O)[C@H](CCCNC(=N)N)NC(=O)[C@H](CCCNC(=N)N)NC(=O)[C@@H](NC(=O)[C@H](CCCNC(=N)N)NC(=O)[C@H](CCCNC(=N)N)NC(=O)[C@@H](NC(=O)[C@H](Cc1c[nH]c2ccccc12)NC(=O)[C@H](CCCNC(=N)N)NC(=O)[C@@H](N)CCCNC(=N)N)C(C)C)C(C)C)C(C)C)C(C)C)C(C)C)C(C)C)C(C)C)C(=O)N[C@@H](CCCNC(=N)N)C(=O)N[C@@H](CCCNC(=N)N)C(=O)O,dipstick,CD-1 mice,"intravenous, 15 mg/kg, 6-24 h",,urine specific gravity,1.01 g/mL
COc1cccc(OC)c1-c1cc(C(=O)NC2(C(=O)O)C3CC4CC(C3)CC2C4)nn1-c1ccc(C(=O)N(C)CCOCCOCCN(C)C(=O)[C@H](CCCCNC(=O)[C@H](CC(C)C)NC(=O)C2OC2C(=O)O)NC(=O)CN2CCN(CC(=O)[O-])CCN(CC(=O)[O-])CCN(CC(=O)[O-])CC2)cc1C(C)C.[177Lu+3] (mixture of isomers),,mouse HT-29 xenograft,"24 h, biodistribution",baseline: tumour over large intestine,tumour-to-large intestine ratio,11.7
FC(F)(F)C1(c2ccc(CN3CCN(C(c4ccccc4)c4ccc(Cl)cc4)CC3)cc2)CCC1 (stereo not shown),,PBS,"pH 7.4, 25 °C, 2% DMSO",,solubility,8 µM
CSCC[C@H](N)C(=O)N[C@@H](CO)C(=O)N[C@H](C(=O)N[C@@H](C)C(=O)NCC(=O)N[C@@H](CC(C)C)C(=O)N[C@@H](CCCCN)C(=O)N[C@@H](CCCCN)C(=O)N[C@@H](CCC(N)=O)C(=O)N[C@@H](Cc1c[nH]c2ccccc12)C(=O)N[C@@H](Cc1c[nH]cn1)C(=O)N[C@@H](CCCCN)C(=O)N[C@@H](C)C(=O)N[C@H](C(=O)N[C@@H](CCC(N)=O)C(=O)N[C@@H](CCCCN)C(=O)N[C@H](C(=O)N[C@@H](CO)C(=O)N[C@@H](CCC(=O)O)C(=O)N[C@@H](CCCCN)C(=O)N[C@H](C(=O)NCC(=O)NCC(=O)N[C@@H](C)C(N)=O)C(C)C)C(C)C)[C@@H](C)O)C(C)C,circular dichroism,100% DOPS liposomes,1 mM lipid,,helical content,54%
O=C(Oc1ccccc1)c1ccc(O)cc1,,empty Transwells without cells,"5 µM, 60 min, basolateral to apical",,mass balance,71%
Cc1cc(-c2ccc(C(=O)[C@@H]3CCCC[C@H]3C(=O)Nc3cnn4c3C(=O)NCC4)cc2)[nH]n1,,"human, urine","oral, 200 mg, 6-12 h",baseline: dose,radioactivity recovery per interval,2.59% and 2.73% and 2.4% and 2.39% and 2.81% and 3.06%
CC[C@H](C)[C@@H]1NC(=O)[C@H](Cc2ccc(O)cc2)NC(=O)CCCSC[C@@H](C(=O)N(CC(=O)N[C@@H](CC(C)C)C(=O)NCC(N)=O)Cc2ccc(F)cc2)NC(=O)[C@H](CC(N)=O)NC(=O)[C@H](CCC(N)=O)NC1=O,,human,"intranasal, 400 µg, 11 repeated doses",,subjects with any TEAE,50%
N#Cc1ccnc(N2C(=O)CC[C@H]2C(=O)N(c2cncc(F)c2)[C@H](C(=O)NC2CC(F)(F)C2)c2ccccc2Cl)c1,,"cynomolgus monkey, plasma","intravenous, 1 mg/kg",,clearance,3.33 mL/min/kg

# For quick reference, copied from above:
SMILES,test,system,conditions,how to read,measurement,value
CC[C@H](C)[C@@H]1NC(=O)[C@H](Cc2ccc(O)cc2)NC(=O)CCCSC[C@@H](C(=O)N(CC(=O)N[C@@H](CC(C)C)C(=O)NCC(N)=O)Cc2ccc(F)cc2)NC(=O)[C@H](CC(N)=O)NC(=O)[C@H](CCC(N)=O)NC1=O,,human,"intranasal, 400 µg, 11 repeated doses",,subjects with any TEAE,50%
